Experimental data pooled from the literature.
Protocols differ between the studies behind these lines. ± gives the spread as reported.
RIPK1: Receptor-interacting serine/threonine-protein kinase 1 (RIPK1, Homo sapiens, UniProt Q13546)
UniProt Q13546, sequence (whole entry, looked up): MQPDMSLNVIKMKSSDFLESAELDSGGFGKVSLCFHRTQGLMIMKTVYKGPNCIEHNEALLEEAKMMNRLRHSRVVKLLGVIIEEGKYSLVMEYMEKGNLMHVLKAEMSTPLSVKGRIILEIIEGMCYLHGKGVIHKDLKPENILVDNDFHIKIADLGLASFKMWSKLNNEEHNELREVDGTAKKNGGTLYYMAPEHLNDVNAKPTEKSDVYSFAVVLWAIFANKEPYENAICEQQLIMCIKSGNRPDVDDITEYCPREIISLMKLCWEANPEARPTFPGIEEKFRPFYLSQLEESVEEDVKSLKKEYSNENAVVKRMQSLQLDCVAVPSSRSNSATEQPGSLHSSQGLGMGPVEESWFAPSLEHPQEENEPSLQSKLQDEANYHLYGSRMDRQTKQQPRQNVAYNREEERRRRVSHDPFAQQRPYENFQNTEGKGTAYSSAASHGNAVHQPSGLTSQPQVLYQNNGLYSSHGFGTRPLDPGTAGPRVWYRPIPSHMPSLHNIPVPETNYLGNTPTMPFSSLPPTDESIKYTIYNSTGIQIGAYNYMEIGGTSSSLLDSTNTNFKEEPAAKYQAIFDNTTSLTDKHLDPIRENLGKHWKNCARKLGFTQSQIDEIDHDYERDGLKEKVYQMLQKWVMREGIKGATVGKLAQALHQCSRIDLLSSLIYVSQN
TSPO A147T: Translocator protein, A147T (TSPO, Homo sapiens, UniProt P30536)
UniProt P30536, sequence (whole entry, unmodified, looked up): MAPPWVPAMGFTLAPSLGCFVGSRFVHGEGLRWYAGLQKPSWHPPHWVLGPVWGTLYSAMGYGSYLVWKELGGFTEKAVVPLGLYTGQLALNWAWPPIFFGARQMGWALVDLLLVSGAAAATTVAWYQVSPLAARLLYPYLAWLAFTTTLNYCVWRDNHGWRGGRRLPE
ribH: 6,7-dimethyl-8-ribityllumazine synthase (ribH, Mycobacterium tuberculosis, UniProt P9WHE9)
UniProt P9WHE9, sequence (whole entry, looked up): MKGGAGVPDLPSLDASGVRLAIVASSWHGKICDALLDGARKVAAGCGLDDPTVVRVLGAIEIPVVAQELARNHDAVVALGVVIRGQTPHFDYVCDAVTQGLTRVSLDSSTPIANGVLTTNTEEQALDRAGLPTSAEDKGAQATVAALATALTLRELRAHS
MAPK1: Mitogen-activated protein kinase 1 (MAPK1, Homo sapiens, UniProt P28482)
CYP2A6: Cytochrome P450 2A6 (CYP2A6, Homo sapiens, UniProt P11509)
UniProt P11509, sequence (whole entry, looked up): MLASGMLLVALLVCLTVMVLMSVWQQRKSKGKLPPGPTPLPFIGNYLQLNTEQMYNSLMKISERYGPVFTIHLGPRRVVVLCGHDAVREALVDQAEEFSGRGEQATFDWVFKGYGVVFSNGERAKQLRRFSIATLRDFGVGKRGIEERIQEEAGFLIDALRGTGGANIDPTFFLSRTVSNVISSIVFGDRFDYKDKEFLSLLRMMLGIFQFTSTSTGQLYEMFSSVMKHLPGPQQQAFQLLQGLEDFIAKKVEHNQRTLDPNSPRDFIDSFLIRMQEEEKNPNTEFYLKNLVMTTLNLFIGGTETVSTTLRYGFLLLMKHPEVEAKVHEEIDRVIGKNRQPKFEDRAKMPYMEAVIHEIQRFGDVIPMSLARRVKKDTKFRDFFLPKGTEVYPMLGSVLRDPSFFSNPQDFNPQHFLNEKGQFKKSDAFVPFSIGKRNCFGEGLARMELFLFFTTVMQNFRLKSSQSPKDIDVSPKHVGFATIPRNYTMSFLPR
CHRM1: Muscarinic acetylcholine receptor M1 (CHRM1, Homo sapiens, UniProt P11229)
UniProt P11229, sequence (whole entry, looked up): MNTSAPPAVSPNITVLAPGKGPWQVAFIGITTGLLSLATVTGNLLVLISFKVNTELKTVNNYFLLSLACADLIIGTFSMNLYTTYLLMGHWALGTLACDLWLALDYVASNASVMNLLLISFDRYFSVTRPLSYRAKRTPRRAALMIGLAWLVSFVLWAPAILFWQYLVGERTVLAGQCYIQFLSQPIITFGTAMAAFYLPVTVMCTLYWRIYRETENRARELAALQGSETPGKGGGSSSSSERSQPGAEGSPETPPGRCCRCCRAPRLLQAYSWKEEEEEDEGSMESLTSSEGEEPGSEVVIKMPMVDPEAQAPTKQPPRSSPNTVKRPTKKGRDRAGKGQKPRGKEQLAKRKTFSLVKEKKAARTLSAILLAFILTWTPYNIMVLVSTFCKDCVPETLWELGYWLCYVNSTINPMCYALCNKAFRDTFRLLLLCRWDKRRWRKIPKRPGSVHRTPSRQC
UniProt Q03145, sequence (whole entry, looked up): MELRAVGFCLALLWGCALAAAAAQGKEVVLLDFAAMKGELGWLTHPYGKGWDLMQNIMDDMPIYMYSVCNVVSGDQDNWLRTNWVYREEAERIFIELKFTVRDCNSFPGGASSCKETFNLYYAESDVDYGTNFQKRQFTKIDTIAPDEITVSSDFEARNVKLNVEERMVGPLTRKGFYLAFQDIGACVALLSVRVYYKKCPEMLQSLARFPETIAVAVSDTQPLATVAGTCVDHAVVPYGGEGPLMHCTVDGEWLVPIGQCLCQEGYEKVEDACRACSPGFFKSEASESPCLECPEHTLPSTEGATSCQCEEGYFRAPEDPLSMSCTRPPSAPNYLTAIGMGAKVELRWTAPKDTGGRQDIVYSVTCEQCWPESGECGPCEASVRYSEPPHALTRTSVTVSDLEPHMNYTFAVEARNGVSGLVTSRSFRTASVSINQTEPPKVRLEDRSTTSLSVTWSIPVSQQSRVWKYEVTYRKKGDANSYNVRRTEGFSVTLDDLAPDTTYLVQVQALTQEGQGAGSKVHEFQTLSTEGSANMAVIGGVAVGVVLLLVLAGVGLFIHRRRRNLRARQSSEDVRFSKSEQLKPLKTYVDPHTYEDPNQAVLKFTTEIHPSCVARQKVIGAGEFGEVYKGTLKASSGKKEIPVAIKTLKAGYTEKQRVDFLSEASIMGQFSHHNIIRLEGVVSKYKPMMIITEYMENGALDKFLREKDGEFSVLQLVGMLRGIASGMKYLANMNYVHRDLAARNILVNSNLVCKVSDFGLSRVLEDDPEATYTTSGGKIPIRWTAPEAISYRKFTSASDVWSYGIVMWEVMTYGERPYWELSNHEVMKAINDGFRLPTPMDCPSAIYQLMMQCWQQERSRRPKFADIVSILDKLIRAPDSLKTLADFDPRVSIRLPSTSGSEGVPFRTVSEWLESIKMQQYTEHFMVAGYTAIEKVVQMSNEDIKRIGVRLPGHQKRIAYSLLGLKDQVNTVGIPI
UniProt P16662, sequence (whole entry, looked up): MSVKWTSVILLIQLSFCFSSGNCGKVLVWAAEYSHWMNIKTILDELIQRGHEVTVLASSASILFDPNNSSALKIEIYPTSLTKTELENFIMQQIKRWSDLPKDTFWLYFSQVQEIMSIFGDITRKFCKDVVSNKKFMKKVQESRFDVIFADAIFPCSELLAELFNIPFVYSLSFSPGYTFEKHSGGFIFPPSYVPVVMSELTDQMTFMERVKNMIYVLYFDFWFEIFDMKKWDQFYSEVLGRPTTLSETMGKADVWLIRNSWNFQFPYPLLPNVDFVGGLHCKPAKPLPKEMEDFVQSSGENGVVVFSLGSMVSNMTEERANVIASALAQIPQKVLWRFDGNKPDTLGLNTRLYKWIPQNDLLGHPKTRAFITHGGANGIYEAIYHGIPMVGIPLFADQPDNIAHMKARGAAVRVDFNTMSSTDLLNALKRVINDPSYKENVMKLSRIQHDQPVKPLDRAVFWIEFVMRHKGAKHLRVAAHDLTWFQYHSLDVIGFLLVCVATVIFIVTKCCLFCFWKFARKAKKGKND
UniProt P43114, sequence (whole entry, looked up): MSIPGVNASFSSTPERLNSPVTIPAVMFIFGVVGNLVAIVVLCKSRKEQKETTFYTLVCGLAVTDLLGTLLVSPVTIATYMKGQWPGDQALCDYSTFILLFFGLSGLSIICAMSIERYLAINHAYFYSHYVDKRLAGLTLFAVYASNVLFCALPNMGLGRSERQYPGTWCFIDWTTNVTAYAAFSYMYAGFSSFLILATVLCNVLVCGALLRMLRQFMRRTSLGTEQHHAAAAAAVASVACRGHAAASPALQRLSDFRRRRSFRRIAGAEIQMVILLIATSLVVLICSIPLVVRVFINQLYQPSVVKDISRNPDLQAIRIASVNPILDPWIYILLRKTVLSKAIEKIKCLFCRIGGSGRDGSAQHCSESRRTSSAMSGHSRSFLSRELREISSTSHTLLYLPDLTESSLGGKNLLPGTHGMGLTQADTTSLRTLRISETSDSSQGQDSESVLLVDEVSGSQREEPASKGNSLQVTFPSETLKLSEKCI
UniProt Q9UNQ0, sequence (whole entry, looked up): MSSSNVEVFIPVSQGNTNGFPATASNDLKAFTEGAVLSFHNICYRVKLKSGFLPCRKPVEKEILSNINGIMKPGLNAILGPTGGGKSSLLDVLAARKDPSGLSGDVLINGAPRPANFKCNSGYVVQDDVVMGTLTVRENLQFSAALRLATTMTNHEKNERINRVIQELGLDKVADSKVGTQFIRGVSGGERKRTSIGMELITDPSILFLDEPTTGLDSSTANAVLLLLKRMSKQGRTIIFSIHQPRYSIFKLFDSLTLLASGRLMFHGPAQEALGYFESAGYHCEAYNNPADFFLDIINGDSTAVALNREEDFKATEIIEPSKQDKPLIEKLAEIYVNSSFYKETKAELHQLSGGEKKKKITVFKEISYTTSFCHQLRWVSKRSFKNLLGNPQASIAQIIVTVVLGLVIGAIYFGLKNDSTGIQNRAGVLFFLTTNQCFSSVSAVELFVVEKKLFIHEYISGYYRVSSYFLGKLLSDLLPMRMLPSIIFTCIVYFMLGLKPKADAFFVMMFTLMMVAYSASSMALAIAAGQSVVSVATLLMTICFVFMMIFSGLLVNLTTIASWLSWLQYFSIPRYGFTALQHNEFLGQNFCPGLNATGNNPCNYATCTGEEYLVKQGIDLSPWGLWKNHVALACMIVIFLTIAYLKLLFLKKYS
UniProt P32245, sequence (whole entry, looked up): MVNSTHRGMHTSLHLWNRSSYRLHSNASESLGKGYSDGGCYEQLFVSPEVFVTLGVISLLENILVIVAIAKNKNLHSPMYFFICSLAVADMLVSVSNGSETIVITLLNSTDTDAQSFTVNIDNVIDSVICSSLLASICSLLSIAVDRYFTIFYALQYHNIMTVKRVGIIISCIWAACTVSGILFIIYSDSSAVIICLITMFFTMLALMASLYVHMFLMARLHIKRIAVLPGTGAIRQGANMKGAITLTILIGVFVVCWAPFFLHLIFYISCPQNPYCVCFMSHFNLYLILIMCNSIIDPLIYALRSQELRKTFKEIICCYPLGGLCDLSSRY

Molecule	target or system	assay	test system	conditions	scale	endpoint	result
CN1C(=O)C(Cc2c[nH]c3ccccc23)NC1=S (stereo not shown)	RIPK1	binding, fluorescence polarisation competition		with: fluorescein-necrostatin-1		Ki	4.1 ± 0.3 µM
CCN(CC)C(=O)Cn1c2ccccc2c2cc(Br)ccc21	TSPO A147T	radioligand binding		with: [3H]PK11195		Ki	0.161 ± 0.0206 µM
CCCCSC[C@H]1CN(Cc2c[nH]c3c(N)ncnc23)C[C@@H]1O	MTA/SAH nucleosidase (Campylobacter jejuni subsp. jejuni, UniProt Z9IB28FKP7)	enzyme activity, inhibitor		slow-onset tight binding		Ki	0.00075 µM
O=c1[nH]c(/C=C/c2ccccc2F)c([N+](=O)[O-])c(=O)[nH]1	ribH	enzyme activity, inhibitor		pH 7.0		Ki	7.8 ± 4.6 µM
C#CCCOC(=O)[C@]1(C)C=C(C(=O)OC(C)(C)C)C(=O)CC1	MAPK1	ligand displacement, FP				Ki	1.4 µM
COc1cccc(/C=C/c2[nH]c(=O)[nH]c(=O)c2[N+](=O)[O-])c1F	ribH	enzyme activity, inhibitor		pH 7.0		Ki	24 ± 6 µM
5,10-methylenetetrahydrofolate	thyX (Thermotoga maritima, UniProt Q9WYT0)	oxidase activity, competitive inhibitor		pH 7.9, 37 °C, with: O2 competitor, NADPH 100 µM, dUMP 100 µM		Ki	1.9 ± 0.3 µM
O=c1[nH]c(/C=C/c2ccc[nH]2)c([N+](=O)[O-])c(=O)[nH]1	ribH	enzyme activity, inhibitor		pH 7.0		Ki	30 ± 8 µM
O=C(c1ccoc1)N1CCN(c2cc(-c3cccc(F)c3)nc3cc(-c4ccccc4)nn23)CC1	ABCG2 (Homo sapiens, UniProt Q9UNQ0)	JC-1 dye efflux, inhibitor, flow cytometry	ABCG2-overexpressing cells	with: JC-1 1 µM		IC50	1.68 ± 0.61 µM
C=C(C)C(=O)Nc1c(SC[C@H](O)[C@H](O)[C@H](O)CO)[nH]c(=O)[nH]c1=O	ribH	inhibitor		pH 7.0, with: substrate 1 varied, other substrate 2 constant		Ki	198 ± 72 µM
Nc1ccc(C(=O)O)cc1	mushroom tyrosinase	diphenolase activity, inhibitor		pH 6.8, 20 °C, with: caffeic acid substrate		Ki	20 µM
NC(=O)Cn1cc(COc2ccccc2-c2nc(-c3ccccc3)no2)nn1	Caco-2	qPCR, item: TP53		concentration not given, 24 h	relative to: untreated	mRNA level	4.75 ± 0.03 fold
COc1cncc(C=O)c1	Nicotinamidase (Plasmodium falciparum, UniProt O97284)	competitive inhibitor		with: nicotinamide		Ki	0.039 ± 0.004 µM
CCN(CC)C(=O)Cn1c2ccccc2c2cc(-c3ccc(OC)cc3)ccc21	TSPO A147T	radioligand binding		with: [3H]PK11195		Ki	0.0934 ± 0.0146 µM
CCCCCCCCCC=O	CYP2A6	inhibitor		30 min, pH 7.4		Ki	106 ± 29 µM
Cn1ncc2ccc(COc3ccccc3-c3cc(=O)n(C4CCCCC4O)cn3)cc21 (stereo not shown)	CHRM1	positive allosteric modulator, IP1 accumulation	CHO-M1 cells	10 µM, 60 min, 37 °C, with: ACh	relative to: ACh alone, higher = stronger potentiation	ΔpEC50 of ACh	1.11 ± 0.2 log units
CCC#CC[C@H](C)[C@H](O)/C=C/[C@H]1CC(F)(F)C(=O)N1CCCCCCC(=O)O	Ptger4 (Rattus norvegicus, UniProt P43114)	ligand displacement, radioligand				Ki	0.00024 µM
O=c1[nH]c(/C=C/c2ccc3ccccc3c2)c([N+](=O)[O-])c(=O)[nH]1	ribH	enzyme activity, inhibitor		pH 7.0		Ki	11 ± 3 µM
C=Cc1ccc(C(=O)Nc2ccc([C@@H]3C[C@H]3N)cc2)cc1 (relative stereo)	KDM1A (Homo sapiens, UniProt O60341)	enzyme activity, inhibitor				Ki	2.7 µM
Nc1nc2c(ncn2[C@@H]2O[C@@H]3COP(=O)(O)O[C@H]3[C@H]2O)c(=O)[nH]1	Cyclic nucleotide-gated potassium channel (Spirochaeta thermophila, UniProt G0GA88)	Tl+ flux, inhibitor, stopped-flow fluorescence	liposomes	with: cAMP 200 µM		Ki	6 µM
CC(C)(C)OC(=O)n1c(-c2ccccc2)cc2ccccc21	RAW264.7	NO release, inhibitor, Griess		50 µM, 20 h, LPS-stimulated		inhibition	92.4%
C[C@@H](O[C@H]1OCCN(Cc2n[nH]c(=O)[nH]2)[C@H]1c1ccc(F)cc1)c1cc(C(F)(F)F)cc(C(F)(F)F)c1	UGT2B7 (Homo sapiens, UniProt P16662)	enzyme activity, inhibitor		30 min, pH 6.5		Ki	15.1 µM
COc1ccc2c(c1)C1=NN(C(C)=O)C(c3ccc(F)cc3)C1CC2 (stereo not shown)	RIPK1	binding, fluorescence polarisation competition		with: fluorescein-necrostatin-1		Ki	4.5 ± 0.9 µM
O=c1[nH]c(/C=C/c2cccc(O)c2O)c([N+](=O)[O-])c(=O)[nH]1	ribH	enzyme activity, inhibitor		pH 7.0		Ki	12 ± 4 µM
C(=C1c2ccccc2-c2c1ccc1ccccc21)c1cc2c3c(cccc3c1)-c1ccccc1-2	Aminopeptidase N (ANPEP, Sus scrofa, UniProt P15145)	enzyme activity, inhibitor		30 min preincubation, 37 °C, with: L-Leu-pNA		Ki	1.63 µM

Molecule	target or system	assay	test system	conditions	scale	endpoint	result
CC(C)[C@H](NC(=O)[C@@H]1CCCN1C(=O)[C@H](CCCNC(=N)N)NC(=O)[C@H](CS)NC(=O)[C@H](Cc1c[nH]c2ccccc12)NC(=O)[C@H](CCCNC(=N)N)NC(=O)[C@@H](Cc1ccccc1)NC(=O)[C@H](Cc1c[nH]cn1)NC(=O)[C@H](CCC(=O)O)NC(=O)[C@H](CS)NC(=O)[C@H](CS)NC(=O)[C@H](CCCCN)NC(=O)[C@@H]1CC(=O)N[C@@H](CCCNC(=N)N)C(=O)N[C@@H](C)C(=O)N[C@@H](CC(=O)O)C(=O)N[C@H](Cc2ccc(O)cc2)C(=O)N1)C(N)=O [technetium-99m labelled]			C57 mice, stomach	intravenous, 0.037 MBq, 2 h		tissue uptake	1.61 ± 0.35 %ID/g
Cc1cc(-c2cccc(-n3cc(COC(=O)[C@]4(C)C=C(C(=O)OC(C)(C)C)C(=O)CC4)nn3)c2)c(C)c2c1CNCC2	MAPK1	ligand displacement, FP				Ki	4.4 µM
CC[C@H](C)[C@H](NC(=O)CN)C(=O)N[C@H](C(=O)N[C@@H](CC(N)=O)C(=O)N[C@H](C(=O)N[C@@H](CC(C)C)C(=O)N[C@@H](CCC(N)=O)C(=O)N[C@@H](CCCCN)C(=O)N[C@@H](Cc1ccc(O)cc1)C(=O)N[C@@H](Cc1ccc(O)cc1)C(=O)N[C@@H](CO)C(=O)N[C@@H](CCCNC(=N)N)C(=O)N[C@H](C(=O)N[C@@H](CCCNC(=N)N)C(=O)NCC(=O)NCC(=O)N[C@@H](CCCNC(=N)N)C(=O)N[C@@H](CO)C(=O)N[C@@H](C)C(=O)N[C@H](C(N)=O)C(C)C)C(C)C)[C@@H](C)O)[C@@H](C)CC	MC4R (Homo sapiens, UniProt P32245)	ligand displacement in cells				Ki	0.744 µM
O=P(O)(O)OC[C@H]1N[C@H](COP(=O)(O)O)[C@@H](O)[C@@H]1O	Uridine 5'-monophosphate synthase, OPRT domain (UMPS, Homo sapiens, UniProt P11172)	enzyme activity, inhibitor		pH 8.0, 25 °C, with: orotidine 5'-monophosphate 500 µM, pyrophosphate 1 mM		Ki	> 200 µM
CCCCCC/C=C/C=O	CYP2A6	inhibitor		30 min, pH 7.4		Ki	34 ± 3 µM
CC1(CCN2CCc3ccccc3C2)Cc2cc(Cl)ccc2C1=O (stereo not shown)	HTR2B (Homo sapiens, UniProt P41595)	radioligand binding		with: [3H]LSD		Ki	0.162 µM
Cc1ccc(NC(=O)c2ccc(CN3CCN(C)CC3)cc2)cc1Nc1nccc(-c2cncc(-c3oncc3C)c2)n1			mild-to-moderate Parkinson's disease patients	oral, 50 mg once daily, pre-dose baseline, on anti-Parkinson medication	direction not given	MDS-UPDRS part II score	11.2 ± 5
O=C(O)c1ccccn1	mushroom tyrosinase	monophenolase activity, inhibitor		pH 6.8, 20 °C, with: p-coumaric acid substrate		Ki	1970 µM
COc1ccc(/C=C/c2[nH]c(=O)[nH]c(=O)c2[N+](=O)[O-])cc1OC	ribH	enzyme activity, inhibitor		pH 7.0		Ki	32 ± 16 µM
COc1cccc(-c2cc3ccccc3[nH]2)c1	RAW264.7	NO release, inhibitor, Griess		50 µM, 20 h, LPS-stimulated		inhibition	50.7%
CC1(C)C=C(C(=O)OC(C)(C)C)C(=O)CC1	MAPK1	ligand displacement, FP				Ki	31.2 µM
O=c1[nH]c(/C=C/c2ccc(F)cc2)c([N+](=O)[O-])c(=O)[nH]1	ribH	enzyme activity, inhibitor		pH 7.0		Ki	86 ± 51 µM
Cc1ccc(COc2ccccc2-c2cc(=O)n(C3CCCCC3O)cn2)cc1 (stereo not shown)	CHRM1	positive allosteric modulator, IP1 accumulation	CHO-M1 cells	10 µM, 60 min, 37 °C, with: ACh	relative to: ACh alone, higher = stronger potentiation	ΔpEC50 of ACh	1.32 ± 0.2 log units
COc1ccc(/C=C/c2[nH]c(=O)[nH]c(=O)c2[N+](=O)[O-])cc1O	ribH	enzyme activity, inhibitor		pH 7.0		Ki	52 ± 19 µM
CCN(Cc1ccccc1)C(=O)Cn1c(=O)n(C)c2cnc(-c3ccccc3)nc21	TSPO A147T	radioligand binding		with: [3H]PK11195		Ki	0.0313 ± 0.0036 µM
CCCCCCC/C=C/C=O	CYP2A6	competitive inhibitor, item: 7-hydroxycoumarin	human liver S9	30 min, pH 7.4, with: coumarin		Ki	59 ± 6 µM
O=c1[nH]c(OC[C@H](O)[C@H](O)[C@H](O)CO)c([N+](=O)[O-])c(=O)[nH]1	ribH	inhibitor		pH 7.0, with: substrate 1 varied, other substrate 2 constant		Ki	60 ± 5 µM
CC(=O)O[C@@H]1CC[C@@]2(C)[C@H](CC[C@@H]3[C@@H]2CC[C@]2(C)[C@@H]([C@H](C)CCC(=O)O)CC[C@@H]32)C1	Ephrin type-A receptor 2, ectodomain with ephrin-A1 (Mus musculus, UniProt Q03145)	ephrin-A1 binding, inhibitor, ELISA, Schild analysis				Ki	88 ± 11 µM
CCCCCCCCCCCCNC(=O)[C@@H]1CCCN1C(=O)[C@@H]1CCCN1	F12 (Homo sapiens, UniProt P00748)	enzyme activity, inhibitor				Ki	> 1000 µM
CCCC/C=C/C=O	CYP2A6	inhibitor		30 min, pH 7.4		Ki	9 ± 1 µM
CCOC(=O)C1=C(O)C(=O)N(Cc2ccccc2)C1	AKR1B10 (Homo sapiens, UniProt O60218)	enzyme activity, inhibitor				Ki	13 µM
Cc1cccc(NC(=O)c2ccc(-c3cccc(C#N)c3)cc2)n1	Grm5 (Rattus norvegicus, UniProt P31424)	ligand displacement, radioligand		cell membranes		Ki	> 10 µM
O=c1c(O)c(-c2ccc(O)cc2)oc2cc(O)ccc12	UGT1A1 (Homo sapiens, UniProt P22309)	glucuronidation, mixed-type inhibitor, recombinant enzyme		with: 4'-hydroxyflavone substrate		Ki	0.87 ± 0.21 µM
COC(=O)C(=O)Nc1c(OC[C@H](O)[C@H](O)[C@H](O)CO)[nH]c(=O)[nH]c1=O	ribH	inhibitor		pH 7.0, with: substrate 1 varied, other substrate 2 constant		Ki	273 ± 55 µM

For quick reference, copied from above:
Molecule	target or system	assay	test system	conditions	scale	endpoint	result
CCN(CC)C(=O)Cn1c2ccccc2c2cc(-c3ccc(OC)cc3)ccc21	TSPO A147T	radioligand binding		with: [3H]PK11195		Ki	0.0934 ± 0.0146 µM
CCCCCCCCCC=O	CYP2A6	inhibitor		30 min, pH 7.4		Ki	106 ± 29 µM
